Published values pooled from the literature.
Protocols differ between the studies behind these lines.
OPRD1: Delta-type opioid receptor (OPRD1, Homo sapiens, UniProt P41143)
Sequence of UniProt P41143 (whole entry, looked up): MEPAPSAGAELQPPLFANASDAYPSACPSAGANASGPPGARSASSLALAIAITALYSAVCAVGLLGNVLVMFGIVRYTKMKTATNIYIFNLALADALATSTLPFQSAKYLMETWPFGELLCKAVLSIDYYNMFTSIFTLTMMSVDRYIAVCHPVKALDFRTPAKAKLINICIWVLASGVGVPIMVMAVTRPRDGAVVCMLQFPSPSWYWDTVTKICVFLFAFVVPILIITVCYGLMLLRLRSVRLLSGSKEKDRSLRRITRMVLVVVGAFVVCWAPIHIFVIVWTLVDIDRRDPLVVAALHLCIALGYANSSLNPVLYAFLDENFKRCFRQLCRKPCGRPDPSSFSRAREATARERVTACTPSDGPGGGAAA

CCC(=O)N(CC1CCCCN1C(=O)[C@H](Cc1ccccc1)NC(=O)CNC(=O)[C@@H](C)NC(=O)[C@@H](N)Cc1c(C)cc(O)cc1C)c1ccccc1 (stereo partly drawn)
Ki (OPRD1; cell-free assay): 0.2 nM

CC(C)[C@H]1CC[C@H](N2CC[C@@](C)(c3cccc(O)c3)[C@@H](C)C2)CC1
Ki (OPRD1; ligand displacement, radioligand): 105 nM

Cc1cc(O)cc(C)c1C[C@H](N)C(=O)N1Cc2ccccc2C[C@H]1C(=O)NCC(=O)NCc1ccccc1
IC50 (OPRD1; GTPγS binding, antagonist, radiometric): 1.3 nM

N=C(N)NCCCCCCCN1CC[C@]23c4c5ccc(O)c4O[C@H]2c2nc4ccccc4cc2C[C@@]3(O)[C@H]1C5
EC50 (Delta-type opioid receptor, with β-arrestin2 (OPRD1, Homo sapiens, UniProt P41143); human cells): 500 nM

CCCC[C@@H]1NC(=O)[C@H](Cc2ccccc2)NC(=O)CNC(=O)[C@H](NC(=O)[C@@H](N)Cc2ccc(O)cc2)C(C)(C)SSC(C)(C)[C@H](C(=O)N[C@@H](Cc2c[nH]c3ccccc23)C(=O)NCc2cc(C(F)(F)F)cc(C(F)(F)F)c2)NC(=O)[C@@H]2CCCN2C1=O
EC50 (OPRD1; GTPγS binding, agonist, radiometric; cell membranes): 120 nM

CCCCCCCCN1CCC23c4c5ccc(O)c4OC2c2nc4ccccc4cc2CC3(O)C1C5 (stereo not drawn)
EC50 (Delta-type opioid receptor, with Gi1 (OPRD1, Homo sapiens, UniProt P41143); human cells): 390 nM

N[C@@H](Cc1ccc(C(=O)NCCc2cccc3ccccc23)cc1)C(=O)N1Cc2ccccc2C[C@H]1C(=O)N[C@@H](Cc1ccccc1)C(=O)N[C@@H](Cc1ccccc1)C(=O)O
EC50 (OPRD1; GTPγS binding, agonist, radiometric): 1.03 nM

CC(C)C[C@H](NC(=O)[C@H](Cc1ccccc1)NC(=O)CN(Cc1ccccc1[N+](=O)[O-])C(=O)CNC(=O)[C@@H](N)Cc1ccc(O)cc1)C(=O)O
EC50 (OPRD1; reporter gene (SEAP), agonist; HEK-293T cells; caged form, no photolysis): 1290 nM

C[C@@H](NC(=O)[C@@H](N)Cc1ccc(O)cc1)C(=O)NCC(=O)N[C@@H](Cc1ccc(F)cc1)C(=O)N1CCN(C(=O)[C@H](Cc2ccc(F)cc2)NC(=O)CNC(=O)[C@@H](C)NC(=O)[C@@H](N)Cc2ccc(O)cc2)CC1
EC50 (OPRD1; GTPγS binding, agonist; cell membranes): 0.8 nM

C[C@H]1[C@H]2CCC[C@]1(c1cccc(O)c1)CCN2CCc1ccccc1
Ki (OPRD1; ligand displacement, radioligand; cell membranes): 140 nM

CCCC[C@H](NC(=O)[C@H](Cc1ccccc1)NC(=O)CNC(=O)[C@@H](C)NC(=O)[C@@H](N)Cc1ccc(O)cc1)C(=O)N1CCC[C@H]1C(=O)N[C@@H](CC(C)C)C(=O)N[C@@H](CO[C@@H]1O[C@H](CO)[C@@H](O)[C@H](O)[C@H]1O)C(=O)N[C@@H](Cc1c[nH]c2ccccc12)C(=O)NCc1cc(C(F)(F)F)cc(C(F)(F)F)c1
IC50 (OPRD1; ligand displacement, radioligand): 1.48 nM

N[C@@H](Cc1ccc(C(=O)NCCc2ccc(C3CCCCC3)cc2)cc1)C(=O)N1Cc2ccccc2C[C@H]1C(=O)N[C@@H](Cc1ccccc1)C(=O)N[C@@H](Cc1ccccc1)C(=O)O
EC50 (OPRD1; GTPγS binding, agonist, radiometric): 1.69 nM

CCCC[C@@H](C(=O)N[C@@H](CC(=O)O)C(=O)N[C@@H](Cc1ccccc1)C(N)=O)N(C)C(=O)[C@@H](Cc1c[nH]c2ccccc12)NC(=O)CNC(=O)[C@@H](Cc1ccccc1)NC(=O)[C@@H](N)Cc1ccc(O)cc1
EC50 (OPRD1; GTPγS binding, agonist; cell membranes): 20.9 nM

N[C@@H](Cc1ccc(C(=O)NCCc2ccc3ccccc3c2)cc1)C(=O)N1Cc2ccccc2C[C@H]1C(=O)N[C@@H](Cc1ccccc1)C(=O)N[C@@H](Cc1ccccc1)C(=O)O
EC50 (OPRD1; GTPγS binding, agonist, radiometric): 0.475 nM

C[C@@H](NC(=O)[C@@H](N)Cc1ccc(O)cc1)C(=O)NCC(=O)N[C@@H](Cc1ccc(F)cc1)C(=O)Nc1ccccc1NC(=O)[C@H](Cc1ccc(F)cc1)NC(=O)CNC(=O)[C@@H](C)NC(=O)[C@@H](N)Cc1ccc(O)cc1
Ki (OPRD1; ligand displacement, radioligand; cell membranes): 12.8 nM
